Values quoted from earlier work that unrelated publications cite.
Protocols differ between the studies behind these lines.
UniProt Q15831, sequence (whole entry, looked up): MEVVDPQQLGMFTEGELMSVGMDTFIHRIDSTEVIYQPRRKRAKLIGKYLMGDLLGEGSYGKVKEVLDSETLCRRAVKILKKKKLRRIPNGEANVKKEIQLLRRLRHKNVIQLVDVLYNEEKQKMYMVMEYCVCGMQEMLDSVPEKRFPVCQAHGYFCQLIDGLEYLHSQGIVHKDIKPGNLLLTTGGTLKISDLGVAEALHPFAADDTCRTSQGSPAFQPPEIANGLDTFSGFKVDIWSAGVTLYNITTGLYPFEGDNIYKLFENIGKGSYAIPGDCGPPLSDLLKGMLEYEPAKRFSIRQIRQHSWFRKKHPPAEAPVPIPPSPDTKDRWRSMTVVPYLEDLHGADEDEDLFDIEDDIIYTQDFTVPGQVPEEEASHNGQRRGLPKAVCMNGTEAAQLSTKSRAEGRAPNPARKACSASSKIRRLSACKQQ

The logP of `Cc1c(Nc2ncccc2C(=O)O)cccc1C(F)(F)F` is reported as 4.8.
With `CCCCCCCOC(=O)c1ccc(O)cc1` the logP was 4.83 (octanol-water).
`CC/C(=C(/CC)c1ccc(O)cc1)c1ccc(O)cc1` has a logP of 5.07.
With `O=c1cc(-c2ccc(O)cc2)oc2c([C@@H]3O[C@H](CO)[C@@H](O)[C@H](O)[C@H]3O)c(O)cc(O)c12` the logP was 0.2.
The logP of `O=c1[nH]c(=O)n([C@@H]2O[C@H](CO)[C@@H](O)[C@@H]2F)cc1CCC[18F]` is reported as -0.12 (1-octanol/0.1 M NaH2PO4; pH 7.47).
`C[C@H](Cn1cnc2c(N)ncnc21)OCP(=O)(O)O` gave a logP of 1.25 (octanol/water).
With `c1ccc2[nH]c(-c3cscn3)nc2c1` the logP was 2.34.
`Nc1cc(C(F)(F)F)c(-c2nc(N3CCOCC3)nc(N3CCOCC3)n2)cn1` gave a remaining activity of 92% (Serine/threonine-protein kinase STK11 (STK11, Homo sapiens, UniProt Q15831); enzyme activity; 10 µM; baseline: untreated).
With `O=c1[nH]c(=O)n([C@H]2C[C@H](O)[C@@H](CO)O2)cc1CCCC[18F]` the logP was -0.24 (1-octanol/0.1 M NaH2PO4; pH 7.47).
With `C#C[C@]1(O)CC[C@H]2[C@@H]3CCc4cc(O)ccc4[C@H]3CC[C@@]21C` the logP was 3.81.
`CC(O)C(C)n1ncn(-c2ccc(N3CCN(c4ccc(OCC5COC(Cn6cncn6)(c6ccc(Cl)cc6Cl)O5)cc4)CC3)cc2)c1=O` (stereo not shown) has a logP of 4.5 (Simcyp input parameter).
`CC(=O)Nc1ccc(O)cc1` has a logP of 0.5.
With `COc1cc(C(=O)NS(=O)(=O)c2ccccc2C)ccc1Cc1cn(C)c2ccc(NC(=O)OC3CCCC3)cc12` the logP was 5.5.
`CCCCC(CC)COC(=O)c1ccc(O)cc1` (stereo not shown) has a logP of 4.93 (octanol-water).
`Cc1cccc(Nc2ccccc2C(=O)O)c1C` has a logP of 5.03.
With `CC(C)C[C@H](NC(=O)[C@H](CCc1ccccc1)NC(=O)CN1CCOCC1)C(=O)N[C@@H](Cc1ccccc1)C(=O)N[C@@H](CC(C)C)C(=O)[C@@]1(C)CO1` the logP was 4.13.
`CC[C@H]1OC(=O)[C@H](C)[C@@H](O[C@H]2C[C@@](C)(OC)[C@@H](O)[C@H](C)O2)[C@H](C)[C@@H](O[C@@H]2O[C@H](C)C[C@H](N(C)C)[C@H]2O)[C@](C)(OC)C[C@@H](C)C(=O)[C@H](C)[C@@H](O)[C@]1(C)O` gave a logP of 3.13.
The logP of `CCOC(=O)c1ccc(O)cc1` is reported as 2.47 (octanol-water).
For `O=c1[nH]c(=O)n([C@H]2C[C@H](O)[C@@H](CO)O2)cc1CCC[18F]`, the logP was -0.57 (1-octanol/0.1 M NaH2PO4; pH 7.47).
With `CCn1c(=O)c2c(nc(/C=C/c3ccc(OC)c(OC)c3)n2C)n(CC)c1=O` the logP was 2.96 (octanol/water).
With `O=C(C1CCCCC1)N1CC(=O)N2CCc3ccccc3C2C1` (stereo not shown) the logP was 2.46.
`Cn1cncc1[C@@](N)(c1ccc(Cl)cc1)c1ccc2c(c1)c(-c1cccc(Cl)c1)cc(=O)n2C` has a logP of 4.41.
The logP of `CCCCOC(=O)c1ccc(O)cc1` is reported as 3.57 (octanol-water).
`CCCN(CCC)S(=O)(=O)c1ccc(C(=O)O)cc1` has a logP of 3.2.
`CCCCCCCC(=O)c1c(O)cc(O)cc1CC(=O)OCC` gave a logP of 7.33.
With `CC(O)C(C)n1ncn(-c2ccc(N3CCN(c4ccc(OCC5COC(Cn6cncn6)(c6ccc(Cl)cc6Cl)O5)cc4)CC3)cc2)c1=O` (stereo not shown) the logP was 4.78 (calculated; octanol/water).
`O=c1[nH]c(=O)n([C@@H]2O[C@H](CO)[C@@H](O)[C@@H]2F)cc1[125I]` has a logP of 0.05 (1-octanol/0.1 M NaH2PO4; pH 7.47).
For `C[C@]12C=CC(=O)N[C@@H]1CC[C@@H]1[C@@H]2CC[C@]2(C)[C@@H](C(=O)Nc3cc(C(F)(F)F)ccc3C(F)(F)F)CC[C@@H]12`, the logP was 5.09 (n-octanol/water).

Some of these lines once more:
The logP of `O=c1[nH]c(=O)n([C@@H]2O[C@H](CO)[C@@H](O)[C@@H]2F)cc1CCC[18F]` is reported as -0.12 (1-octanol/0.1 M NaH2PO4; pH 7.47).
`CCCCCCCC(=O)c1c(O)cc(O)cc1CC(=O)OCC` gave a logP of 7.33.
With `O=C(C1CCCCC1)N1CC(=O)N2CCc3ccccc3C2C1` (stereo not shown) the logP was 2.46.
